Measured values pooled from the literature.
Each numbered part is a random draw from the data of one study; scales do not carry over between parts.
Chain of UniProt Q96RR4 (whole entry, looked up): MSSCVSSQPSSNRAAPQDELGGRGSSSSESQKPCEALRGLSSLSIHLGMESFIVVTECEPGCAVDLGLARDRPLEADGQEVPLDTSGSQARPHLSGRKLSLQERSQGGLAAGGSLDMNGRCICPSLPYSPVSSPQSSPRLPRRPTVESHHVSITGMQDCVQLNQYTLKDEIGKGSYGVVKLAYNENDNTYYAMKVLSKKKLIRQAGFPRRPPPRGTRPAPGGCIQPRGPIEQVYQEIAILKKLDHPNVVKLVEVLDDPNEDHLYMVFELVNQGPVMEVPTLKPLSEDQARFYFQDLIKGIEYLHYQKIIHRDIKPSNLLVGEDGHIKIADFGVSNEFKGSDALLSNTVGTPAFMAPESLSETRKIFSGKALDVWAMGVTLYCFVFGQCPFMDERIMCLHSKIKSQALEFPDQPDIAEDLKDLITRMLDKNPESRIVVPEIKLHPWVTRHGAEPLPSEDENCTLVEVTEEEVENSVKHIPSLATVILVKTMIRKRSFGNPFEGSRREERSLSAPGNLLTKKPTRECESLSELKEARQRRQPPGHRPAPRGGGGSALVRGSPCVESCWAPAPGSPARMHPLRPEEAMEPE

Series 1
Target: PABPC1L2, full length, GST fusion (mouse, UniProt A0ABA7IW68)
Technique: RNAcompete
Molecule type: RNA
Sample: in vitro
Concentration: 20 nM
Notes: 7-mer, probes averaged, single round
Reference: mean of 7-mers
Reading: higher = stronger binding
Target sequence (chain): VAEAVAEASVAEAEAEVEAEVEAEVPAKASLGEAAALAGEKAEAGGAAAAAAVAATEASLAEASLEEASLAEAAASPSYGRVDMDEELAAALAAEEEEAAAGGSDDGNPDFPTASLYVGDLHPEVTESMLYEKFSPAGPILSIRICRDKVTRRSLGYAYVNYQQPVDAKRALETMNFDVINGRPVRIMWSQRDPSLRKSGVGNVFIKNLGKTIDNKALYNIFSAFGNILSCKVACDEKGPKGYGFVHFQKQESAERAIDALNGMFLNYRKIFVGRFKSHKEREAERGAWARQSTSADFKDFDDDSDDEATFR
| Strand | 7-mer Z-score |
| --- | --- |
| UCGAUAC | -0.0681 |
| CCUUUAU | -0.22 |
| GGGCAAA | 1.58 |
| GGCACAG | 0.256 |
| GUGUUAU | -0.311 |
| GCGUCAU | -0.17 |
| GGACGGU | 0.0877 |
| GGUACGU | -0.179 |

Series 2
Target: TAR DNA-binding protein 43, full length, His tag (TARDBP, Homo sapiens, UniProt Q13148, residues 1-414)
Technique: RNA Bind-n-Seq
Molecule type: RNA
Sample: in vitro
Concentration: 20 nM
Notes: 6-mer, flanks averaged, single round
Together with: 150 mM LiCl
Reference: input library
Reading: higher = stronger binding
| Strand | 6-mer enrichment (R) |
| --- | --- |
| CUGGCC | 0.953 |
| UCGGGG | 1.09 |
| AGUCUU | 0.88 |
| UGAUAC | 0.886 |
| AUGCUC | 0.861 |
| AGGCAA | 0.863 |
| AUAAAU | 0.977 |
| UCGAAG | 0.856 |

Single results of other studies
| SMILES | tested on | observed | technique | sample | concentration | quantity | result |
| --- | --- | --- | --- | --- | --- | --- | --- |
| Nc1cnc(N2CCc3cc(S(=O)(=O)Nc4c(F)cc(Cl)cc4F)cc(N4CCCC4=O)c32)nc1 | DYRK1B (Homo sapiens, UniProt Q9Y463) | cell-free assay | competition with immobilised ligand | – | 1 µM | remaining binding | 100% |
| CCOC(=O)[C@@H]1CSCC(=O)N[C@H](CC)C(=O)N(C)[C@@H](C)C(=O)N[C@H](CC(C)C)C(=O)N2CCC[C@H]2C(=O)N(CC)CC(=O)N[C@@H](CC(C)C)C(=O)N(C)[C@H](C)C(=O)N[C@@H](CC(C)C)C(=O)N1C | – | – | – | hydrocarbon/water | – | logD | -0.158 |
| CCCOc1ccc([C@@H]2[C@@H](C(=O)O)[C@H](c3ccc4c(c3)OCO4)CN2CC(=O)Nc2c(CC)cccc2CC)cc1 | CAMKK2 (Homo sapiens, UniProt Q96RR4) | cell-free assay | competition with immobilised ligand | – | 1 µM | remaining binding | 84% |
